Assay results collected from several papers.
Each line is one published result; not all experiments were run side by side. “And” joins repeats or separate records; there may be more than shown. ± gives the spread as reported.
U2AF2: U2AF2 148-342 (Homo sapiens, UniProt P26368)
Sequence of UniProt P26368 (whole entry, looked up): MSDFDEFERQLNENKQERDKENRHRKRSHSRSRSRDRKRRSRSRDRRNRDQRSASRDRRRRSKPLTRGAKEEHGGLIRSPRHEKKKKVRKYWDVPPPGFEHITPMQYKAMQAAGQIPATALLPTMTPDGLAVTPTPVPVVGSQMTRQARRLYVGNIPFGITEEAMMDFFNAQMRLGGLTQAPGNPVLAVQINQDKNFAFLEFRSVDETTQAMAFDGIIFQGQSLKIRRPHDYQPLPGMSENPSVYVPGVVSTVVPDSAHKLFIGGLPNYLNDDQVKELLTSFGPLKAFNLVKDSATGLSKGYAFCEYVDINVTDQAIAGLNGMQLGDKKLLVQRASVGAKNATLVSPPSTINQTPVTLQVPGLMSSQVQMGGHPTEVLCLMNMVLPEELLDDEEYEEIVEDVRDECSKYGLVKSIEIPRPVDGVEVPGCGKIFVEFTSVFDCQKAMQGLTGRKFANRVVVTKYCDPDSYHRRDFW
T1: TOA1/TOA2 1-286; 1-122 (Saccharomyces cerevisiae); chain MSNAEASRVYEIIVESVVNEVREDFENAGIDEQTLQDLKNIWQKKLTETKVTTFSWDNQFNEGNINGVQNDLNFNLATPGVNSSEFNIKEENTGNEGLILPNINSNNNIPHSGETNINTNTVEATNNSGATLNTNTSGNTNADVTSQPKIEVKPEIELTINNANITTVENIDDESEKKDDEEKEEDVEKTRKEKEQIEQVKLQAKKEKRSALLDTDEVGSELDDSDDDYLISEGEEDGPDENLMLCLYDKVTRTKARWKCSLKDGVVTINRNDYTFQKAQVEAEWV; chain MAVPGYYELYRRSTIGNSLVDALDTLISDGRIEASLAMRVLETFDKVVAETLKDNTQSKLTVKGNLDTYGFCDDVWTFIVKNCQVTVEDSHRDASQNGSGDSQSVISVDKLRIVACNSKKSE
B1: PPM1A (human); sequence looked up; chain GAFLDKPKMEKHNAQGQGNGLRYGLSSMQGWRVEMEDAHTAVIGLPSGLESWSFFAVYDGHAGSQVAKYCCEHLLDHITNNQDFKGSAGAPSVENVKNGIRTGFLEIDEHMRVMSEKKHGADRSGSTAVGVLISPQHTYFINCGDSRGLLCRNRKVHFFTQDHKPSNPLEKERIQNAGGSVMIQRVNGSLAVSRALGDFDYKCVHGKGPTEQLVSPEPEVHDIERSEEDDQFIILACDGIWDVMGNEELCDFVRSRLEVTDDLEKVCNEVVDTCLYKGSRDNMSVILICFPNAPKVSPEAVKKEAELDKYLECRVEEIIKKQGEGVPDLVHVMRTLASENIPSLPPGGELASKRNVIEAVYNRLNPYKNDDTDSTSTDDMW
B2: human archaemetzincin-2; sequence looked up; chain MQIIRHSEQTLKTALISKNPVLVSQYEKLNAGEQRLMNEAFQPASDLFGPITLHSPSDWITSHPEAPQDFEQFFSDPYRKTPSPNKRSIYIQSIGSLGNTRIISEEYIKWLTGYCKAYFYGLRVKLLEPVPVSVTRCSFRVNENTHNLQIHAGDILKFLKKKKPEDAFCVVGITMIDLYPRDSWNFVFGQASLTDGVGIFSFARYGSDFYSMHYKGKVKKLKKTSSSDYSIFDNYYIPEITSVLLLRSCKTLTHEIGHIFGLRHCQWLACLMQGSNHLEEADRRPLNLCPICLHKLQCAVGFSIVERYKALVRWIDDESSDTPGATPEHSHEDNGNLPKPVEAFKEWKEWIIKCLAVLQK
Sequence of UniProt P13393 (whole entry, looked up): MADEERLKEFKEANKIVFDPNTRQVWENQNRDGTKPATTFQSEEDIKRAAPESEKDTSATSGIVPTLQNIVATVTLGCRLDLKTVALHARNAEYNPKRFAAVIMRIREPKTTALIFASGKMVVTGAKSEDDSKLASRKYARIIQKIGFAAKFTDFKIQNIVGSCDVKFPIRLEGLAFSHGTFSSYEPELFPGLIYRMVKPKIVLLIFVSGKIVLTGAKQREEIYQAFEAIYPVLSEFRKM
Sequence of UniProt Q00535 (whole entry, looked up): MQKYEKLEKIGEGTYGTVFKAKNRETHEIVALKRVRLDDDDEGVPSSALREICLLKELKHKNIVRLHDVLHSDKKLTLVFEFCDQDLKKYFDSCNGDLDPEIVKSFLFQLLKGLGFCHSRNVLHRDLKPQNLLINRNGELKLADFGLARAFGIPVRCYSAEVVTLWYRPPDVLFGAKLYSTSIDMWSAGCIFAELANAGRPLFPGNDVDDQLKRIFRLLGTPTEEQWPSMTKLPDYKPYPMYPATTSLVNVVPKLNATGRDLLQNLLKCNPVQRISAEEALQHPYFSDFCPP

Under “AUEC of ACT ratio”, `heparin sodium` is recorded as 136 (human; intravenous infusion, 8 IU/kg/h, day 1 to 6; relative to: baseline).
With `AAAAAACAAAAAAAATCCTATAACCAGTTCTCCCGTCAAGTCAATCGGTCC (dsDNA; 5'-amino-C6 primer)` the Kd was 95.9 ± 31.4 nM (T1, TOA1/TOA2 1-286; 1-122 (Saccharomyces cerevisiae); array; double-stranded DNA, one strand shown; TFIIA alone).
With `VVVGAVGVGK` the remaining protein was 0.896 and 0.905 and 0.87 (HLA-A*11:01 peptide-β2M single-chain trimer; western blot, refers to: pMHC-I; peptide, 293T cells; 18 h, unit not given, with: 100 µg/mL cycloheximide; relative to: time zero).
`human VCP` — result for “log2 fold change”: 0.5 (CYB5R4 knockout human cells; PP4 interaction, 3xFLAG-PP4C IP-MS; concentration not given; relative to: CYB5R4 KO over parental).
For `Peginesatide`, the mRNA level was 3.7 fold (UT7/EPO; RT-qPCR, refers to: KLF6; concentration not given, 90 min, normalized to HPRT1; relative to: vehicle).
The MIC of `colistin` is reported as ≤ 0.5 µg/mL (Acinetobacter baumannii; broth microdilution; clinical isolate RKI-No_3/15).
Under “log2 fold change”, `clathrin heavy chain 1, human` is recorded as -0.43 (CYB5R4 knockout human cells; PP4 interaction, 3xFLAG-PP4C IP-MS; concentration not given; relative to: CYB5R4 KO over parental).
For `maraviroc`, the protein level was 1.74 fold (Western blot; HIV-infected mice, frontal cortex; i.p., 120 mg/kg twice daily, 3 weeks post infection; relative to: HIV-infected untreated mice, increase).
`UUCUUUUCU (ssRNA)` gave a Kd of 270 nM (U2AF2; sequencing of bound RNA; RNA; motif only).
`TCCTGAAGGGGCGCATATAAAAGGTCCTATCGTCGTCAAGTCAATCGGTCC (dsDNA; 5'-amino-C6 primer)` has a Kd of 6.09 ± 0.55 nM (SPT15 full length assumed (Saccharomyces cerevisiae, UniProt P13393); array; double-stranded DNA, one strand shown; TBP alone).
Under “log2 fold change”, `B1 (PPM1A)` is recorded as -0.58 (PP6C (human); co-immunoprecipitation, IP-MS; CYB5R4 knockout cells; concentration not given; relative to: CYB5R4 knockout over parental).
The Kd of `UCUCUACUA (ssRNA)` is reported as 2240 nM (U2AF2; sequencing of bound RNA; RNA; motif only).
For `KEAFWDRCLSVINLMSSKMLQINM`, the activity change was -26% (Cyclin-dependent kinase 5, with p25 (CDK5, Homo sapiens, UniProt Q00535); phosphotransferase activity, radiometric; peptide; concentration not given, 10% DMSO, with: histone substrate; relative to: p5-WT peptide).
`GSGAGIESNV`: “normalised SPR binding response” 20.7 normalised RU (construct, MBP fusion, human SCRIB, PDZ 3-4; surface plasmon resonance; peptide; concentration not given; higher = stronger binding).
With `epoetin alfa` the mRNA level was 4 fold (UT7/EPO; microarray, refers to: BMP2 (probe 205290_s_at); 5 U/mL, 90 min, with: SCF 10 nM; relative to: vehicle).
For `GSGAGSETVV`, the binding intensity was 0.13 (construct, MBP fusion, human SCRIB, PDZ 3-4; automated holdup; peptide, crude extract; concentration not given, corrected by standard peak, unit not given; relative to: biotin control resin, higher = stronger binding).
Under “log2 fold change”, `B2 (human archaemetzincin-2)` is recorded as 0.43 (CYB5R4 knockout human cells; PP4 interaction, 3xFLAG-PP4C IP-MS; concentration not given; relative to: CYB5R4 KO over parental).

Some of these lines once more:
Under “log2 fold change”, `B1 (PPM1A)` is recorded as -0.58 (PP6C (human); co-immunoprecipitation, IP-MS; CYB5R4 knockout cells; concentration not given; relative to: CYB5R4 knockout over parental).
The Kd of `UCUCUACUA (ssRNA)` is reported as 2240 nM (U2AF2; sequencing of bound RNA; RNA; motif only).
For `KEAFWDRCLSVINLMSSKMLQINM`, the activity change was -26% (Cyclin-dependent kinase 5, with p25 (CDK5, Homo sapiens, UniProt Q00535); phosphotransferase activity, radiometric; peptide; concentration not given, 10% DMSO, with: histone substrate; relative to: p5-WT peptide).
